# Measured values from different studies.
# Each line is one published result; not all experiments were run side by side. ± gives the spread as reported. Where no end group is shown, it is not given here. [ ]: non-standard residue; d: D form. The star is where a group is joined.
Substance,cell line,assay,test system,setting,scale,endpoint,result
CC[C@@H](C)[C@@H](NC(=O)[C@@H](NC(=O)[C@@H](N)C(C)C)C(C)C)C(=O)N[C@@H](C)C(N)=O,PC-12,"Aβ42-induced neurotoxicity, inhibitor, MTT",,"concentration not given, 6 h, 37 °C, peptide to Aβ42 1:2, together with: Aβ42 2 µM",relative to: untreated cells,viability,76.5%
Nc1ccc(-c2ccc3ncc4ccc(=O)n(-c5cccc(C(F)(F)F)c5)c4c3c2)cn1,NIH3T3 in HEY/NIH microtissues,fibroblast toxicity,,"chronic toxicity, unit not given","relative to: AC50 ATP over AC50 NanoLUC, day 7",therapeutic window,2.22
CC(C)NCC(O)COc1cccc2ccccc12 (racemic),hiPSC-derived 3D engineered cardiac tissue,contractility,serum-free medium,"concentration not given, 15 min, paced at 1 Hz",relative to: time-matched vehicle,active force,decreased
C#C[C@@]1(O)[C@@H](CO)O[C@@H](n2cc(Cl)c3c(N)ncnc32)[C@@H]1O,U-251,"cell growth or viability, SRB",,48 h,,GI50,0.01 to 0.02 µM
N[C@@H]1[C@H]2CN(c3nc4c(cc3F)c(=O)c(C(=O)O)cn4-c3ccc(F)cc3F)C[C@@H]12,human podocytes,"RT-PCR or Western blot, measured: VEGF-A165b and VEGF-A165a",normal glucose,"10 µM, 48 h",,VEGF-A165b/VEGF-A165a ratio,2.48
VVI[dA] (D-Ala4),PC-12,"protection from Aβ1–42 toxicity, MTT",,"concentration not given, 6 h, Aβ to peptide ratio 1:10, together with: Aβ1–42 2 µM",relative to: untreated cells,cell viability,71.2%
O=C(Nc1ccc([N+](=O)[O-])cc1Cl)c1cc(Cl)ccc1O,NIH3T3 in SKOV/NIH microtissues,fibroblast toxicity,,"168 h, chronic toxicity, unit not given","relative to: AC50 ATP over AC50 NanoLUC, day 7",therapeutic window,1.4
[dP]VIA (D-Pro1),PC-12,"protection from Aβ1–42 toxicity, MTT",,"concentration not given, 6 h, Aβ to peptide ratio 1:5, together with: Aβ1–42 2 µM",relative to: untreated cells,cell viability,72.7%
COc1ccc(Cl)cc1C(=O)NCCc1ccc(S(=O)(=O)NC(=O)NC2CCCCC2)cc1,hiPSC-derived 3D engineered cardiac tissue,contractility,serum-free medium,"concentration not given, 15 min, paced at 1 Hz",relative to: time-matched vehicle,active force,no effect
O=c1[nH]c2ccccc2nc1/C=C/c1ccc(F)cc1,NCI-H460,"cell growth or viability, MTT",,72 h,,IC50,37.4 µM
C/C(=N\N=C1/NC(=O)/C(=C\c2ccc(F)cc2)S1)c1ccccn1,HEp-2,"cell growth or viability, SRB",,"100 µg/mL, 48 h",,inhibition,67.7%
VV[dA]A (D-Ala3),PC-12,"protection from Aβ1–42 toxicity, MTT",,"concentration not given, 6 h, Aβ to peptide ratio 1:10, together with: Aβ1–42 2 µM",relative to: untreated cells,cell viability,73.3%
Cn1c(=O)c(F)c(Nc2ccc(I)cc2F)c2c(=O)n(C[C@@H](O)CO)cnc21,NIH3T3 in HEY/NIH microtissues,fibroblast toxicity,,"168 h, chronic toxicity, unit not given","relative to: AC50 ATP over AC50 NanoLUC, day 7",therapeutic window,162
CCn1c(-c2ccc(Br)cc2)cs/c1=N/N=C(\C)c1ccccn1,HEp-2,"cell growth or viability, SRB",,"100 µg/mL, 48 h",,inhibition,58.9%
V[dV]IA (D-Val2),PC-12,"protection from Aβ1–42 toxicity, MTT",,"concentration not given, 6 h, Aβ to peptide ratio 1:5, together with: Aβ1–42 2 µM",relative to: untreated cells,cell viability,70%
CCN(CC)CCNC(=O)c1c(C)[nH]c(/C=C2\C(=O)Nc3ccc(F)cc32)c1C,NIH3T3 in HEY/NIH microtissues,fibroblast toxicity,,"168 h, chronic toxicity, unit not given","relative to: AC50 ATP over AC50 NanoLUC, day 7",therapeutic window,0.023
PACAP-27,NCI-H838,"Fura-2 fluorescence, measured: cytosolic Ca2+",,100 nM,,time to peak,~15 s
CC(C)C[C@H](NC(=O)[C@H](CCc1ccccc1)NC(=O)CN1CCOCC1)C(=O)N[C@@H](Cc1ccccc1)C(=O)N[C@@H](CC(C)C)C(=O)[C@@]1(C)CO1,NIH3T3 in HEY/NIH microtissues,fibroblast toxicity,,"168 h, chronic toxicity, unit not given","relative to: AC50 ATP over AC50 NanoLUC, day 7",therapeutic window,12.8
TCVCGS,B16-F10,,peptide,"2 µg coated per well, 30 to 60 min",relative to: thrombospondin-coated wells,adherent cells,10%
VV[Nle]A (Nle3; Nle = CCCC[C@H](N)C(=O)O),PC-12,"protection from Aβ1–42 toxicity, MTT",,"concentration not given, 6 h, Aβ to peptide ratio 1:5, together with: Aβ1–42 2 µM",relative to: untreated cells,cell viability,70%
CC12CCC3c4ccc(O)cc4CCC3C1CCC2(O)C=Cc1cc(C(F)(F)F)cc(C(F)(F)F)c1 (stereo not drawn),Ishikawa,"alkaline phosphatase induction, agonist",,"concentration not given, 3 d",relative to: estradiol,relative stimulatory activity,3.5 ± 0.7%
VV[dV]A (D-Val3),PC-12,"protection from Aβ1–42 toxicity, MTT",,"concentration not given, 6 h, Aβ to peptide ratio 1:5, together with: Aβ1–42 2 µM",relative to: untreated cells,cell viability,70%
CCN1C(=O)/C(=C\c2ccc(OC)c(OC)c2)S/C1=N/N=C(\C)c1ccccn1,HEp-2,"cell growth or viability, SRB",,"100 µg/mL, 48 h",,inhibition,62.5%
Transferrin,INS-832/13 rat insulinoma cells,"apoptosis, measured: cleaved caspase-3/actin",,"400 nM, 48 h, together with: adenoviral prepro-hIAPP-GFP overexpression",,cleaved caspase-3 level,no effect
N[C@@H](Cc1cc(I)c(Oc2ccc(O)c(I)c2)c(I)c1)C(=O)O,iPSC-derived intestinal progenitor cells,measured: ISX,,concentration not given,relative to: DMSO,mRNA level,increased
CSTSCR,B16-F10,,peptide,"2 µg coated per well, 30 to 60 min",relative to: thrombospondin-coated wells,adherent cells,39%
COc1ccc2c3c(c4cc(OC)c(OC)cc4c2c1)C[C@H]1CCCN1C3,CL1-5,"RT-PCR, Western blot, measured: Cdt1, CDC6",,"0.01 µg/mL, 24 and 48 h",,Cdt1 and CDC6 levels,increased
NC(=O)c1ccc(-c2nc(-c3ccc4c(c3)OCO4)c(-c3ccccn3)[nH]2)cc1,iPSC-derived intestinal progenitor cells,measured: ISX,,concentration not given,relative to: DMSO,mRNA level,increased
Cc1[nH]c2ccccc2c1CCNCc1ccc(/C=C/C(=O)NO)cc1,GIST-T1 (KIT exon 11 mutant),measured: phospho-KIT,,"concentration not given, after compound washout",,time to KIT signalling reactivation,≤ 24 h
CCCCCCCCCCCCCCCCCCOCC(COP(=O)([O-])OCC[N+](C)(C)C)OC (stereo not drawn),four leukaemia cell lines,,,,,GI50,16.8 µM
C[N+](C)(C)CCOC(N)=O,rat pancreatic acini,,,"1 µM, 15 min, together with: PKCθ pseudosubstrate inhibitor 20 µM",relative to: total,amylase secretion,7 ± 0.5%
CCn1c(C)c(C(C)=O)s/c1=N/N=C(\C)c1ccccn1,HEp-2,"cell growth or viability, SRB",,"100 µg/mL, 48 h",,inhibition,71.9%
[68Ga+3].[Cl-].[Cl-].[Cl-],BT-474,radioligand cell binding,,"concentration not given, 2 h, pH 7.0, 37 °C",,specific binding,18.8 ± 2.5%
Cc1cc(C)c(C=NNc2nc(-c3ccc(C#N)cc3)cs2)c(C)c1,HCT-116,colony formation,,"5 µM, 24 h",,inhibition,5 to 50%
C[C@]12CC[C@@H]3c4ccc(O)cc4CC[C@H]3[C@@H]1CC[C@@]2(O)C=Cc1cc(C(F)(F)F)ccc1C(F)(F)F,Ishikawa,"alkaline phosphatase induction, agonist",,"concentration not given, 3 d",relative to: estradiol,relative stimulatory activity,29.7%
CC(C)NCC(O)c1ccc(O)c(O)c1 (stereo not drawn),hiPSC-derived 3D engineered cardiac tissue,contractility,serum-free medium,"concentration not given, 15 min, paced at 1 Hz",relative to: time-matched vehicle,active force,increased
COc1cc(N2CCC(N3CCN(C)CC3)CC2)ccc1Nc1ncc(Cl)c(Nc2ccccc2S(=O)(=O)C(C)C)n1,NIH3T3 in SKOV/NIH microtissues,fibroblast toxicity,,"168 h, chronic toxicity, unit not given","relative to: AC50 ATP over AC50 NanoLUC, day 7",therapeutic window,1.44
amyloid-β42 oligomers,U-251,ELISA,,"concentration not given, 24 h",,ApoE secretion,inhibited
VV[dL]A (D-Leu3),PC-12,"protection from Aβ1–42 toxicity, MTT",,"concentration not given, 6 h, Aβ to peptide ratio 1:1, together with: Aβ1–42 2 µM",relative to: untreated cells,cell viability,70%
Cc1ccc(N(CC2=NCCN2)c2cccc(O)c2)cc1,hiPSC-derived 3D engineered cardiac tissue,contractility,serum-free medium,"concentration not given, 15 min, paced at 1 Hz",relative to: time-matched vehicle,active force,decreased
Tumor necrosis factor alpha,human osteoclast precursors and osteoclasts,"immunofluorescence, measured: cleaved caspase-3",,"200 ng/mL, 24 h, together with: PTHrP(12-48) 50 nM",,apoptotic cells,~55%
"5FAM-KKSRRC(Farnesyl)VLS (N-5-FAM, S-farnesyl-Cys; 5FAM = O=C1OC2(c3ccc(O)cc3Oc3cc(O)ccc32)c2ccc(C(=O)*)cc21; Farnesyl = CC(C)=CCC/C(C)=C/CC/C(C)=C/C*)",PC-12,flow cytometry,,"1 µM, 2 h, 37 °C",relative to: other cell lines,cellular uptake,increased
Cc1cccc(C=NNc2nc(-c3ccc(C#N)cc3)cs2)c1O,HCT-116,colony formation,,"5 µM, 24 h",,inhibition,5 to 50%
CCN1C(=O)C(C(C)=O)S/C1=N/N=C(\C)c1ccccn1 (stereo not drawn),HEp-2,"cell growth or viability, SRB",,"100 µg/mL, 48 h",,inhibition,72.4%
VV[dI]A (D-Ile3),PC-12,"protection from Aβ1–42 toxicity, MTT",,"concentration not given, 6 h, Aβ to peptide ratio 1:1, together with: Aβ1–42 2 µM",relative to: untreated cells,cell viability,70%
